Measured values collected from several papers.
Every numbered part comes from another study and shows a few of its results, in no order. Changes are numbered by the printed parent chain.

Block 1
Target: RING finger protein unkempt homolog, zinc fingers 1-6, GST-SBP tag (UNK, Homo sapiens, UniProt Q9C0B0, residues 30-357)
Method: RNA Bind-n-Seq
Form: RNA
Matrix: in vitro
Tested at: not given
Notes: RNA with constant flanks, human and mouse sites, ends assumed
Relative to: input RNA pool
Reading: higher = stronger binding
Shared flanks, not repeated: GGGAGUUCUACAGUCCGACGAUC … CAACAGAGGAUUGAGCAUCA
Target sequence (chain): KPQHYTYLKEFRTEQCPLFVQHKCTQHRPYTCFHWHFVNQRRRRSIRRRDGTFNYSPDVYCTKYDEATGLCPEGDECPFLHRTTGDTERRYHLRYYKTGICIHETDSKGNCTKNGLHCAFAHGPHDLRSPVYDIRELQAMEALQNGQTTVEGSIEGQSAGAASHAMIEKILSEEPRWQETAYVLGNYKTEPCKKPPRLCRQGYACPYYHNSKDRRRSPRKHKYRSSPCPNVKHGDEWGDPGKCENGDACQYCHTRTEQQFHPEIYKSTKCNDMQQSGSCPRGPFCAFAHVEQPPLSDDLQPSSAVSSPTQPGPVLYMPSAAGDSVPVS
| Oligonucleotide | bound/input enrichment |
| --- | --- |
| GCGCUGCGCGGCGUCAUUGCUCCCGCCCUAUAUACCUACUUCCGCCCGCGAGCCACUUCCUUUCCUUUCAGCGGCGCGCGGCUGCAAGAUGGCGGUGCAGAUUUCCAAGAAGAGGAAGUU | 0.0979 ratio |
| CUUCAAAAGCAUGUGGAGGAUCUGUUGACCAAAUUAAAAGAGGCCAAGGAACAACAGGCCAGUAUGGAAGAGAAAUUCCACAAUGAAUUAAAUGCCCACAUAAAACUUUCUAAUUUGUAC | 0.241 ratio |
| UUGGUUAAUGUGUUAUUUAUUGAGUAUUGUUUGUGCUAAGCAUUGUGUUAGAUUUAAAAAAUUAGUGGAUUGACUCCACUUUGUUGUGUUGUUUUCAUUGUUGAAAAUAAAUAUAACUUU | 24.9 ratio |
| CACUUCUUAAGAGAGAAGAGAGAGGAAGUCAGGGGACACACAGGCUGAGUGGCCGUGUGGUAGUUCUCCUGUCUGUGUAUAAAUAUUUACAUGUUCUGUGUGGUCUGAAUGCAGAAGCUC | 0.215 ratio |
| GUACCACCUGUCGCGGCGCGAGACCUCUGGUGAAAGAAAAGAUGUUGUCCCGGUUAAGAGUAGUUUCCACCACUUGUACUUUGGCAUGUCGACAUUUGCACAUAAAAGAAAAAGGCAAGC | 0.161 ratio |
| AGUUUGCUUGGGUUGGUUUUUUGUUUUUGUUUUUCCUGGAAAACAUUCAGUGAGAGAAGUAAUAGAUUGAAAACAAAUGAAUUCUCAACUUCUAUGUUGACCAUGUAGAGAGUUCAGACA | 0.32 ratio |
| AGCUUUGCUGAGCCAUCAAGGUCUAAUGGAAGCAUGGUUCGGCAUUCUUCAUCUCCAUAUGUAGUAUAUCCUUCGGAUAAGCCUUUCCUUAAUAGUGAUCUACGACGCUCCCCAAGUAAG | 0.75 ratio |
| UUUCCUCACAAAUGUGAGGUCUGUGAUAAAGGUUUUCAUCGUCCUUCUGAGCUCAAAAAGCAUAGUGAUAUCCAUAAGGGUAGGAAGAUUCAUCAGUGCAGGCACUGUGACUUUAAAACA | 0.235 ratio |
| UUUGGAGCUCCUCCUCAUGCUGGUGGUGGCAUUGGGCUGGAAAGGGUGACGAUGCUGUUUUUAGGAUUGCAUAACGUACGCCAGACCUCAAUGUUCCCUCGUGACCCCAAACGACUCACG | 0.117 ratio |
| GUCAGAUUUGAGAAUGCAGAUCUGAACGACACAUCACGGAAUCUAGAAUUUCAUGAACUGCAUAGCACUGGAAAUGAGCCUCCUCUGCUGGUUAUGAUCGGCUACAGUGACGGAAUGCAG | 0.215 ratio |

Block 2
Target: ABI1, truncated, D143A, DHFR fusion (Arabidopsis thaliana)
Method: DHFR PCA, deep sequencing
Matrix: yeast
Notes: methotrexate growth selection, single substitutions
With: (+)-ABA 200 µM
Relative to: wild-type fitted maximum
Reading: higher = stronger binding
Starting sequence: PYL1, truncated, DHFR fusion (Arabidopsis thaliana); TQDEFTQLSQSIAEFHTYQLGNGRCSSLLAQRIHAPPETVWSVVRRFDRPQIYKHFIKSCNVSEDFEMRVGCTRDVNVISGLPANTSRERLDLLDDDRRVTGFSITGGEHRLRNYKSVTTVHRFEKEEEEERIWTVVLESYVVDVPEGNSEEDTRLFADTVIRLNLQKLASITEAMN
| Change | relative binding score [%] |
| --- | --- |
| P37F | 47.9 |
| T86Q | 93.6 |
| V145M | 77 |
| E128S | 106 |
| F66M | 95.9 |
| Q167E | 101 |
| I57R | 2.35 |
| E14R | 94.7 |

Block 3
Target: Histone acetyltransferase KAT6A, both winged helices, GST fusion (KAT6A, Homo sapiens, UniProt Q92794, residues 1-181)
Method: protein binding microarray
Form: double-stranded DNA, one strand shown
Matrix: in vitro
Tested at: not given
Notes: 8-mer, flanks averaged, mean of 2 arrays, mostly near background
Relative to: not given
Reading: higher = stronger binding
Residues (chain): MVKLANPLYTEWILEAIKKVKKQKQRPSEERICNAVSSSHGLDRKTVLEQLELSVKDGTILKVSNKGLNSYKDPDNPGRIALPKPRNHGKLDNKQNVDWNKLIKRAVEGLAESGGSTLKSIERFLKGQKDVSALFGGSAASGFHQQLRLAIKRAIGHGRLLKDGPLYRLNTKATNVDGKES
| Oligonucleotide | E-score |
| --- | --- |
| ACTTCGCG | 0.204 |
| ACCGCTAT | 0.22 |
| CCAGGAAG | -0.0849 |
| AATGTGAT | -0.00371 |
| CTGGAAGC | -0.093 |
| GTGCACAC | -0.115 |

Single results of other studies
| Molecule | target | test | system | setting | how to read | quantity | result |
| --- | --- | --- | --- | --- | --- | --- | --- |
| PhoQ, residues 284 288 289 292 302 303 WVSSAF | PhoP, residues 12 14 15 18 19 IFFTR (Escherichia coli, UniProt P23836) | Sort-seq, measured: YFP reporter | E. coli | PhoQ-PhoP variant library, with: 10 µM Mg2+ | relative to: high Mg2+ state, higher = stronger signaling | fold induction | 1.94 |

A few entries again (block 2):
| Change | relative binding score [%] |
| --- | --- |
| E128S | 106 |
| Q167E | 101 |
